Measurements pooled from the literature.
Protocols differ between the studies behind these lines. Numbers after ± are the reported error.

SMILES	assay	test system	conditions	measurement	value
O=C(O)c1cccc(C(=O)O)c1		betaine/propylene glycol DES-water	DES mass fraction 0.80	apparent dissolution enthalpy	4.84 kcal/mol
CC1(C)CCC(CN2CCN(c3ccc(C(=O)NS(=O)(=O)c4ccc(NCC5CCOCC5)c([N+](=O)[O-])c4)c(Oc4cnc5[nH]ccc5c4)c3)CC2)=C(c2ccc(Cl)cc2)C1	final population PK model	AML patients, plasma	oral, dose not given	apparent central volume (V2/F)	110 L
CNC(=O)c1c(C)oc2cc(Oc3ncnc4cc(OC)c(OC)cc34)ccc12	final population PK model	cancer patient weighing sample A kg	oral, dose not given, no proton pump inhibitor	apparent volume of distribution	50.4 L
CCCCOCCOc1ccc(-c2ccc3c(c2)/C=C(/C(=O)Nc2ccc([S@@+]([O-])Cc4cncn4CCC)cc2)CCCN3CC(C)C)cc1		mild hepatic impairment patients, plasma	150 mg, day 1, single dose, geometric mean	apparent clearance CL/F	27.1 L/h
OC[C@H]1O[C@@H](c2cc(Cc3ccc(C4CC4)cc3)c(Cl)c3c2CCO3)[C@H](O)[C@@H](O)[C@@H]1O		healthy Korean adults, fasted, plasma	oral, 0.3 mg single dose, separate tablets, with: co-administered drug 50 mg	apparent clearance CL/F	8.99 ± 2.74 L/h
CC#CC(=O)N1CCC[C@H]1c1nc(-c2ccc(C(=O)Nc3ccccn3)cc2)c2c(N)nccn12	population pharmacokinetics	healthy subjects	oral, dose not given	apparent peripheral volume (Vp/F)	49 L
N[C@@H](CC(=O)N1CCc2c(nc(C(F)(F)F)nc2C(F)(F)F)C1)CN1CC(F)(F)CCC1=O		healthy Korean adults, fasted, plasma	oral, 50 mg single dose, fixed-dose combination tablet, with: enavogliflozin 0.3 mg	apparent volume Vd/F	981 ± 228 L
O=C(c1cccnc1-c1ccncc1)N1CCC(O)(Cc2ccccc2)CC1	population PK model	healthy adults	oral, 300 mg	apparent peripheral volume	356 L
Cc1c(C(=O)O)ccc2c3n(nc12)[C@@H]1[C@H](C3)N(CC2CC2)[C@@]2(C(=O)Nc3cc(Cl)ccc32)[C@H]1c1cccc(Cl)c1F		cancer patients, plasma	oral, 45 mg day 1 every 3 weeks, geometric mean, cycle 1	apparent clearance CL/F	0.44 L/h

Repeated from above:
SMILES	assay	test system	conditions	measurement	value
CNC(=O)c1c(C)oc2cc(Oc3ncnc4cc(OC)c(OC)cc34)ccc12	final population PK model	cancer patient weighing sample A kg	oral, dose not given, no proton pump inhibitor	apparent volume of distribution	50.4 L
